Assay results from different studies.
Numbered parts are unrelated; each lists some results of a single study.

Study 1
Target: Interferon regulatory factor 7, full length, phosphomimetic (IRF7, Homo sapiens, UniProt Q92985, residues 1-503, S101K/S471D/S472D/S475D/S476D/S477D/S483D/S484D/S487D)
UniProt Q92985, sequence (whole entry, unmodified, looked up): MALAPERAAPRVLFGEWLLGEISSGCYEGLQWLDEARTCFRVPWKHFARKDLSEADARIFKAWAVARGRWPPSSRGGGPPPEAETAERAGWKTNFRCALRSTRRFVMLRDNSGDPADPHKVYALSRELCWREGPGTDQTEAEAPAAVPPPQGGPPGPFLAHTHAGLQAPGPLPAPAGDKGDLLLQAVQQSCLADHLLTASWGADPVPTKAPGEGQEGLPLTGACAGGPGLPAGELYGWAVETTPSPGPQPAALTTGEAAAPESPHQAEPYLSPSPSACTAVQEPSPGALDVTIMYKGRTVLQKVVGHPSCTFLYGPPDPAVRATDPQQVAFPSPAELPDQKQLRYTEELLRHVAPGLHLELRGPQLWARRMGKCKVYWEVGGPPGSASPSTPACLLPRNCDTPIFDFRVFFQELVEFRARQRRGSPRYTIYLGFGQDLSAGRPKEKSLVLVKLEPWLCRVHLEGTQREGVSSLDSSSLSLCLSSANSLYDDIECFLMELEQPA
Method: protein-binding microarray
Form: double-stranded DNA, one strand shown
Medium: in vitro
Tested at: 250 nM
Setting: 60-bp whole probe
Together with: salmon DNA 0.4 mg/ml
Relative to: random background probes
Reading: higher = stronger binding
Endpoint: log fluorescence
Shared flanks, not repeated: GCCTAGCAC … GTCTTGATTCGCTTGACGCTGCTG
TTAGGTTTACTTTCCCTTTAGTGCTAG: 2.32 z-score
TCAACTTTCCACTTGTCACTGTGCTAG: 1.61 z-score
GACCGTATCGGGACTGGGGACGTGCTA: 0.394 z-score
GACGGTTTCGGACTGGGAACGTGCTAG: 4.52 z-score
TTAGCACTGGGGTATCGATTAGTGCTA: -0.241 z-score
GACGGACAGGACTATCGGGACGTGCTA: -0.747 z-score
TTAGGTCTCCTTCTACTTTAGTGCTAG: 0.377 z-score
TTAGATTTCAGTCTCGATTGGTGCTAG: 2.8 z-score
GACGGACTGGGTTTCGGGTCGTGCTAG: 5.18 z-score
GACGATTTCAGTTCAGAGACGTGCTAG: 0.419 z-score
GACGGACCGGGTATCGGGACGTGCTAG: 0.0715 z-score
TTAGGTAACCTTTTCCTTTAGTGCTAG: 0.797 z-score
TTAGGACTTGGGTTTCGGTTAGTGCTA: 5.61 z-score
TTAAGTTCCGGTTTCGGTTAGTGCTAG: 11.6 z-score
CTGTTTCTACTGTCTGTTTCCGTGCTA: 3.28 z-score
TTAGGTTGCGGTTCCGGTTAGTGCTAG: 2.35 z-score
GACAGTATCCTTCTCCTGACGTGCTAG: 0.295 z-score
TTTAAGCTCCTATCTTATGATGTGCTA: -0.0546 z-score
TCAGGTTTCGACTTTCGGTTAGTGCTA: 11.1 z-score
GACGGCCTGGGACTGGGGACGTGCTAG: -0.649 z-score
TTAGGTATCGACACAGGGTTAGTGCTA: -0.0977 z-score
TTAGGTCTCCTTTTCCTGTAGTGCTAG: 1.95 z-score
TTGGATTTCGGGTTTCGATTAGTGCTA: 7.1 z-score
GACGGTTCCCATTTCCTGACGTGCTAG: 2.91 z-score
CTAGGTTTCCTTTCCCTTTAGTGCTAG: 5.38 z-score

Study 2
Target: RING finger protein unkempt homolog, zinc fingers 1-6, SBP tag (UNK, Homo sapiens, UniProt Q9C0B0, residues 30-357)
UniProt Q9C0B0, sequence (30-357, looked up): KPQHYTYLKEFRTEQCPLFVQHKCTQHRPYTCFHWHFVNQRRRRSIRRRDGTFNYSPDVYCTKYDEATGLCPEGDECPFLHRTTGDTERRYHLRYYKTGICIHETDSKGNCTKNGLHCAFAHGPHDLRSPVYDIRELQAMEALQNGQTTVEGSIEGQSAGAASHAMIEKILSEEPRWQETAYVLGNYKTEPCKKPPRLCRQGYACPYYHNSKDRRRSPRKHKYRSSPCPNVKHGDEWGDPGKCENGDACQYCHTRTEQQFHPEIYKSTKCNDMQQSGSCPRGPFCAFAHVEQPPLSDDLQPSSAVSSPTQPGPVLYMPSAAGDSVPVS
Method: RNA Bind-n-Seq
Form: RNA
Medium: in vitro
Tested at: 100 nM
Setting: RNA with constant flanks, vertebrate orthologous sites, ends assumed
Relative to: input RNA pool
Reading: higher = stronger binding
Endpoint: bound/input enrichment
Shared flanks, not repeated: GGGAGUUCUACAGUCCGACGAUC … CAACAGAGGAUUGAGCAUCA
AACUUGUAUGAAACAUGUCUGUCCAGAGAAGUAGUAUCCUAUAAAUAUUAUCAAGAAAUUUAGUAAGAGUAUUUUUAAGUAUUACAUUACAUUUCAGCAUUUAAAGUGAAUUUGAGAUUA: 0.355 ratio
UAUUAAGCAUCUUAAUAAAUUACUGGAGAUUCCUGAAGUCCAUUUUGUAGGAUCAGAUCAUAGGAUGGUGUUGUUUAAGUUUGUGUACUGUGUCCAGAGUUACAUUUUUAAAAGUGUUAA: 0.442 ratio
AAUCAGUAGAAUUACAUAAUACUAAAGUUGCAGUUGAAAGGAUAUCCAAGUAUGUGUUGGUAGUUACUAAAAGAAUUAUAGCUGUUAUUGCCUUGUAUUGAUAGCCCUUGUUUCAGGUUU: 0.888 ratio
GCAGCACAUAAAUGACCCAAGGCAGCGACUUAAGCUUUAUGGAGAGUGCAGUCUUACAGGCACCUGCUUCCGUUUAAACUUCGAGAUUGGAUUGUUAAGAUACAUAUCUUUCAGUAAAGG: 0.323 ratio
GGGACGCUUUGACAUAAAGCUCACCGUGUCGUGACCUGAGCUACAGCGAGCACUCAAUUUGAAAACGAAUACAACUUAGAGAAAACCGUUCAGAUAAAAACCACCACUAGUCUUUGAACA: 0.19 ratio
GAAUUGAACAAAAGCGUUUCCACUGGGUUUUGCCUGUAAGAAAAAAAGUACCCGAGCACAUAGAGCUUUUUAAUAGUGCUAACCAAUGCCUUUUUAGAUGUAUUUUUGAUGUAUAUAUCU: 1.06 ratio
UUGGUUUGGGGUAGAGGGGAGGGAAGGGCAGGAUGGUAUGGAAUCUCUAGGGUAUAUGGGUAGUUAGGGUACACAGUUAGUUCUAAGUGGGCCUUUAUGUUAAAAAUUUUUUGGGAGGUG: 1.37 ratio
UGAGGGAGAGAUUUCUGUGCUUUCUCAUAUUUAAUUUGCUGUUUUUAAGAUAUUCCAACCUAGAGUUUUUGAUGGAACUGAUAUAUUGACAGUUCUCACCUAAGUCCUUUUAUAAAGAAU: 1.23 ratio
ACAGAGGAGAGCUCACAAACUCAAAGGAAAACCACUAAAGAGUUUCUAAUAGUCAAGAGCUAGGAAAUAUUAAGUCAAUUUUACAAAUAAUAGCAAUUAAAAAAAGAGAUGAGAACACAG: 1.19 ratio
GAACAUAUGUAGAAAACAACUUUCACUGAACCCAUUGUCAAGUUUUCCCCUAGCAUUUUAUUUGGACUUCUUUUGUUUUAUACAAGCUUGCAGUGUUUGUCAUUAUUAGUCCACAAUUUA: 1.12 ratio
UAUUCAGUCAUGGAGAAAAGGUUAUUAAAAUAAUCUUAUGGCACUGCUCUUUACUUUUAUUAGUUUUACAAGAGUUAGGGUUCUUGUUCACAGAAAACAGGAGCUGACUAUUGAGGAGAA: 0.345 ratio

Study 3
Target: Histone acetyltransferase KAT6A, both winged helices, GST fusion (KAT6A, Homo sapiens, UniProt Q92794, residues 1-181)
Method: protein binding microarray
Form: double-stranded DNA, one strand shown
Medium: in vitro
Tested at: not given
Setting: 8-mer, flanks averaged, mean of 2 arrays, mostly near background
Relative to: not given
Reading: higher = stronger binding
Endpoint: E-score
Target sequence (chain): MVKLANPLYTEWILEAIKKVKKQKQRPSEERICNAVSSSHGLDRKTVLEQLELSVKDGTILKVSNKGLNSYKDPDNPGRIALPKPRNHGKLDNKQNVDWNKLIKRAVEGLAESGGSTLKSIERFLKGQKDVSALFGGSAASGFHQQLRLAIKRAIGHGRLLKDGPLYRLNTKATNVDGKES
CGGGGAAC: 0.179
ATGTGCGA: 0.0496
AGGTGAGC: -0.0621
CCGTGGAG: 0.163
AGTGATCC: -0.0459
CTCTGGCC: -0.154
ACTGCAGG: -0.159
AATCTAAC: -0.0235
ATGAGTCA: -0.141
AGCCAAGG: -0.23
AGCGGCCT: 0.231
AAGACGGA: 0.0474
CCGTTTCC: 0.215
CTAGCATC: -0.139
GAGTATGA: 0.0258
AACTACTG: -0.0383
GAGTGGCC: 0.00092
AAACAACC: -0.164
CATCCCTA: -0.141
CAAGCATC: -0.058
GAAGACTA: -0.0857
ACATTTAC: -0.0572
AGCTCGCG: 0.147
CCAGTTCA: -0.00179
GCAGGCCC: -0.0198

Study 4
Target: RNA binding protein fox-1 homolog 2, RRM domain, GST-SBP tag (RBFOX2, Homo sapiens, UniProt O43251-10, residues 100-194)
Method: RNA Bind-n-Seq
Form: RNA
Medium: in vitro
Tested at: 365 nM
Setting: natural RNA segment, single round, ends assumed
Relative to: no-protein control
Reading: higher = stronger binding
Endpoint: RBNS enrichment (R)
Shared flanks, not repeated: GGGAGUUCUACAGUCCGACGAUC … UGGAAUUCUCGGGUGCCAA
Residues (chain): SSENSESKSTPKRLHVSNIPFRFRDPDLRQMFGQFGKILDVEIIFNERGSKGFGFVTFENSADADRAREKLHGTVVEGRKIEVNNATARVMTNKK
CAUAGGCAUUUUAAGAGAACAGAAUGGUAGCAUAAUUUAACCCUGCACUGAGCAGGAACAUUGAAGAGUUGGGUGGUCGCACUGGUGUUAGCUGAAGAUGGGAAAGACUC: 2.2
AAUAAUACCUUAAUCCAGGGUAGGGAGACGUUGCACAAUGCAUUGCAUUAUAUAUACCUAUCACUGAUUUAAUGUUCCAAUGUAGAUAGACACUAUUAAAUAAGCAGUAA: 0.533
AUGUUGCGUGUGUCUGUCUGUGAGCCUUUCACACCUGUGCUGGCGCUGGAAAAUUAUUUGUGCUCAGCUGACAUUUAACACUCCCUCCCCCGCUUCCUCCUAGCCCUGUG: 0.678
UUUAUAAAUGUCAACUAUAUAAAAAAAGCUCAAAACAGUGUUAAAGGAAUGAACAGUAGAAUUUUAAUAGGCUGUCCAAAGAAGCCAGGUCUGCUGUGGGCAAGUAUAGC: 0.414
ACAGGGAGAGGUGGGUAAUAAACUUCCUGUAAUGACAGUGUUUGGCAUUUCUUUAUGGAUGGAAUUGGAACAUGAACAAGACCAUGUCCAGCGUUUUUACUGUGAAUGUA: 1.53
GCAGGAUAAAGAGGAUAACUCCUUCCAUUAGCAAAUUUUACAGUUGUUAACAGUACUCUGCCAUAUUUGAAAAAUAAUGCCAGAGUCAGUCCUUGAAAACAAGGUAGCUC: 0.726
UCAUGGCUGAACCUCUGAGACUGAGCCUUGGGGAGCACAGCUCUACUCUGGUUACACGGAUCACCUUUGUUGUGCUAGAAUGGAAGCUACAUUUCUGGAAUGUGUGUACC: 0.684
GCAGCCUAAUAUGAAGAUUGAUCCUUCAAUUUUUUUCCUGUUCAUUUUAGUGCUAAAAGGCUUUUAUAAAUUAUAAUAAGCCUCAGGAAGAAGCAAGCCUCUUACAUAUU: 0.661
GAAGAGGGAACAAUGGCGUUUUUCGAACUUAUUUCUCUCUAAUCCAGCCUGGAGGAUUUUUAGCCGAAACAGUUGCAUGUGAAGGAUUAUCAGCCAUCUUUGCAUAUCCC: 3.59
UGCCGUGCUUACGUUAUUUAUUAGCUGUAGCCAUUUCUGUCUUGGCUCUCACUUCCUCUGCCCUUCCCUCUGAGCAGCCAUAGUGACAUUUACUAUGAAUUUACUUCCUC: 0.253
UUUUAGUGACAUUUUAAAAGCAGUCAGAUUCUAUAAAUGGCAAGUAAGCCUGAAGUGAGGAUACUGCAAUUUUCGGAGAAAAGAACAGCAGCUCUUUAAGUGUUUGCAUU: 0.44
UCUCAGAAUGGGAGACCGAGCGCAGGUUAGGCACCCCUCCCCCUUGCAUCUGUGAGUCCCUCUGGGCGGCUCGUGUACUGAUCGGAUCUGUGAGUCCCUCUGGGCGGCUC: 0.428
